Published values gathered from unrelated publications.
Protocols differ between the studies behind these lines. Several values in a cell are separate wells, animals, samples, runs or records. ± gives the spread as reported.
T1: dsDNA hairpin, hairpin; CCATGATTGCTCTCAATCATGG

target	test	test system	conditions	how to read	quantity	value	SMILES
Disks large homolog 4, PDZ3 domain (Homo sapiens, UniProt P78352)	binding, surface plasmon resonance	–	pH 7.5, 25 °C	–	kon	458000 M⁻¹ s⁻¹	CC(C)[C@H](NC(=O)[C@@H]1CCC(=O)NCCC(=O)NCCCC[C@H](NC(=O)[C@H](CCC(N)=O)NC(=O)[C@@H](NC(=O)[C@H](Cc2c[nH]c3ccccc23)NC(=O)[C@@H]2CCCN2C(=O)[C@H]2CCCN2C(=O)[C@H](Cc2ccccc2)NC(=O)[C@H](CO)NC(=O)CNC(=O)[C@H](N)CSSC[C@@H](NC(=O)[C@@H](CCCNC(=N)N)NC(=O)[C@@H](CCCNC(=N)N)NC(=O)[C@@H](CCCNC(=N)N)NC(=O)[C@@H](CCCNC(=N)N)NC(=O)[C@@H](CCCNC(=N)N)NC(=O)[C@@H](CCCNC(=N)N)NC(=O)[C@H](N)CCCNC(=N)N)C(=O)O)C(C)C)C(=O)N[C@@H]([C@@H](C)O)C(=O)N1)C(=O)O
Albumin (ALB, Bos taurus, UniProt P02769)	absorption titration	–	25 °C, blue shift of BSA band	baseline: bound over free	wavelength shift	7 nm	CC(=O)[O-].O.O.O.O.[Co+2].[O-]c1ccc(Br)cc1C=NCCN1CCOCC1
SWI/SNF-related matrix-associated actin-dependent regulator of chromatin subfamily A member 2 (SMARCA2, Homo sapiens, UniProt P51531)	degrader, immunofluorescence	SW1573	20 h	–	Dmax	~95%	Nc1nnc(-c2ccccc2O)cc1N1CC2CCC(C1)N2c1ccnc(C#CCCN2CCCCCC2)c1
Serine/threonine-protein kinase PAK 1, PBD (PAK1, Homo sapiens, UniProt Q13153)	–	HeLa	20 µM, 1.5 h	–	FRET efficiency	decreased	COC(=O)c1cc(O)c2ccccc2c1O
Melanocortin receptor 4 (MC4R, Homo sapiens, UniProt P32245)	cAMP accumulation	HEK293 expressing MC4R	concentration not given	–	functional activity	inactive	N=C(N)NCCC[C@H](NC(=O)[C@H](CC(=O)O)NC(=O)[C@@H]1CSCCCC(=O)NCC(=O)N[C@@H](Cc2c[nH]cn2)C(=O)N[C@H](Cc2ccccc2)C(=O)N[C@@H](CCCNC(=N)N)C(=O)N[C@@H](Cc2c[nH]c3ccccc23)C(=O)N1)C(=O)N[C@@H](Cc1ccccc1)C(=O)NCC(N)=O
Histone deacetylase 8 (HDAC8, Homo sapiens, UniProt Q9BY41)	ITC	Tris-HCl buffer	pH 7.5, 25 °C	–	TΔS	3 ± 0.3 kcal/mol	Cc1cc(=O)oc2cc(NC(=O)CCCCCCC(=O)NO)ccc12
Synaptic vesicle glycoprotein 2A (SV2A, Homo sapiens, UniProt Q7L0J3)	radioligand binding, autoradiography	human, post-mortem frontal gray matter	5 nM	–	specific binding	361 fmol/mg	[3H]C([3H])([3H])c1cnccc1CN1C[C@@H](c2cc(F)c(F)c(F)c2)CC1=O
m7GpppX diphosphatase (DCPS, Homo sapiens, UniProt Q96C86)	substrate, HPLC	–	0.04 mM, 60 min, 37 °C	–	hydrolysis	7% and 6.9%	C[n+]1cn([C@@H]2O[C@H](COP(=O)(O)OP(=O)([O-])C(F)(F)P(=O)(O)O)[C@@H](O)[C@H]2O)c2nc(N)nc(O)c21
Unconventional myosin-Va (Gallus gallus, UniProt Q02440, D297C/G292C/I296C/S293C/V295G)	stopped-flow FRET	–	15 °C, added: MgCl2 2 mM	–	pocket reverse rate constant	2.22 ± 0.28 s⁻¹	CNc1ccccc1C(=O)O[C@H]1C[C@H](n2cnc3c(N)ncnc32)O[C@@H]1COP(=O)(O)OP(=O)(O)O
Substance-P receptor (TACR1, Homo sapiens, UniProt P25103)	antagonist, BRET	HEK293T	10 µM, added: substance P, added 5 min before	–	inhibition rate constant	0.11 ± 0.02 min⁻¹	Cc1ccccc1-c1cc(N2CCN(CCCN3C(=O)C=CC3=O)CC2)ccc1N(C)C(=O)C(C)(C)c1cc(C(F)(F)F)cc(C(F)(F)F)c1
Xanthine dehydrogenase/oxidase (XDH, Bos taurus, UniProt P80457)	fluorescence quenching	–	concentration not given, 25 °C	–	number of binding sites	0.705	COc1ccc(-c2coc3cc(O)cc(O)c3c2=O)cc1
T1, dsDNA hairpin, hairpin	UV melting	–	6 µM, pH 6.25, Na+ 100 mM	baseline: target alone, higher = more stabilisation	melting temperature shift	5.3 °C	N=C(N)c1ccc(-c2ccc(-c3ccc(-c4ccc(C(=N)N)cc4)[se]3)[se]2)cc1

Some of these lines once more:
target	test	test system	conditions	how to read	quantity	value	SMILES
Melanocortin receptor 4 (MC4R, Homo sapiens, UniProt P32245)	cAMP accumulation	HEK293 expressing MC4R	concentration not given	–	functional activity	inactive	N=C(N)NCCC[C@H](NC(=O)[C@H](CC(=O)O)NC(=O)[C@@H]1CSCCCC(=O)NCC(=O)N[C@@H](Cc2c[nH]cn2)C(=O)N[C@H](Cc2ccccc2)C(=O)N[C@@H](CCCNC(=N)N)C(=O)N[C@@H](Cc2c[nH]c3ccccc23)C(=O)N1)C(=O)N[C@@H](Cc1ccccc1)C(=O)NCC(N)=O
